Experimental data from different studies.
A part holds a random share of what one study measured. Substitutions count along the parent as printed.

Study 1
Target: Centromere-binding protein 1, full length, N-terminal tag (CBF1, Saccharomyces cerevisiae, UniProt P17106, residues 1-351)
UniProt P17106, sequence (whole entry, looked up): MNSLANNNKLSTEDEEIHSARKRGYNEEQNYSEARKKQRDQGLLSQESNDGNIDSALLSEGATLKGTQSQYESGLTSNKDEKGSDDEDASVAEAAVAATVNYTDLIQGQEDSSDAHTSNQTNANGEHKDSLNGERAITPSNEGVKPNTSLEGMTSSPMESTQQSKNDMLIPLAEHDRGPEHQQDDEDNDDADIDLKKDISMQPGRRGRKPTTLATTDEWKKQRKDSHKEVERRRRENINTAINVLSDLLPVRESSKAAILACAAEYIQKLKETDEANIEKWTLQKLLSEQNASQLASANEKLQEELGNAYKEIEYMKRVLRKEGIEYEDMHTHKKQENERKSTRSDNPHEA
Technique: protein-binding microarray
Molecule type: double-stranded DNA, one strand shown
Matrix: in vitro
Tested at: 0.8 µM
Notes: whole 60-bp probe, no competitor
Direction: higher = stronger binding
The fluorescence intensity of `CCTAACTACTATACGCACGTTTCATAGCTTCGTACAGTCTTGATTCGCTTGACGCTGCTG` is reported as 590 a.u.
For `GAACACTCCAAGAACCGCGTGAAGAAAATGTCATAGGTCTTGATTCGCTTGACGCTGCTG`, the fluorescence intensity was 585 a.u.
The fluorescence intensity of `GAACCAATTTTTTGTCACGCTTATTAGAATATTTAGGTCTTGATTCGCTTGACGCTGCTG` is reported as 1590 a.u.
`CTATTTAATTCTTGTCACCAGTAAACAGAACATTTCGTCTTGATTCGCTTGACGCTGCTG` has a fluorescence intensity of 621 a.u.
For `GAACGTTTGAAGTGACGCGTCACTAACCATGACTAGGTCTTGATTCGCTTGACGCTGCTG`, the fluorescence intensity was 502 a.u.
`GAATTTTTATAAATCAAAGTCACAAAAAGTCCTTAGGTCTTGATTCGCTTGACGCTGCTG` gave a fluorescence intensity of 588 a.u.
`TGTACGAAGCTATATAACGTGTGTATAGTAGTTAGGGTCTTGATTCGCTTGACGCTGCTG` gave a fluorescence intensity of 577 a.u.
`CTAGGACATTCATGCAACGTGGTAAATATGTGTTTCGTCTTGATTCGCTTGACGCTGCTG` gave a fluorescence intensity of 583 a.u.
The fluorescence intensity of `GAACCTTTGTAAACGATCGTGACCCGCGGACCATAGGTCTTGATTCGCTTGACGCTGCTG` is reported as 668 a.u.
The fluorescence intensity of `GAAACGTAATATGTACACATGATTTTTTTTCTTTAGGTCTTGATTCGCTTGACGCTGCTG` is reported as 1120 a.u.
`GAAAAGCTATTCAACCACGTGAAGATAGCAGGGTAGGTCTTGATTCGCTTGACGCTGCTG` has a fluorescence intensity of 3580 a.u.
With `GAACTAGAATTAAATCACGCGAAGATCATTAAATAGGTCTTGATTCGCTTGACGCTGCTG` the fluorescence intensity was 892 a.u.
`TGTACGAAGCTATTTGAGGTGACTATAGTAGTTAGGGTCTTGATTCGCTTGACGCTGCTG` gave a fluorescence intensity of 519 a.u.
The fluorescence intensity of `CCTAACTACTATAGACACATCACATAGCTTCGTACAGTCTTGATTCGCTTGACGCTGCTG` is reported as 502 a.u.
`GAACAATTTTTATTTCTGATGACTTTGAAATTTTAGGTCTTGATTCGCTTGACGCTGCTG` gave a fluorescence intensity of 517 a.u.
With `CTATCACATAACCACTAGTCACCTGTGCATTCTTTCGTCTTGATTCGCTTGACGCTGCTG` the fluorescence intensity was 1190 a.u.
With `GAATATACAACCAGGCACGGGACAACATCAAGATAGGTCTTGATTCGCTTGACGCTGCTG` the fluorescence intensity was 1030 a.u.
The fluorescence intensity of `GAAAAATCCAAGCGAAACACCACGCAAACACAATAGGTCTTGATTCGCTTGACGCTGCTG` is reported as 518 a.u.
For `GAAATGCCCAGGGAACACGTTGATTTAGAAGCATAGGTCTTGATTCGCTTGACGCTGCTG`, the fluorescence intensity was 541 a.u.

Study 2
Target: NFE2L3, bZIP domain (human)
Technique: DHFR protein complementation
Matrix: yeast
Notes: single substitutions, most at no-binding floor
Reference: wild-type JUN-FOS pair
Direction: higher = stronger binding
Parent: JUN, bZIP domain (human); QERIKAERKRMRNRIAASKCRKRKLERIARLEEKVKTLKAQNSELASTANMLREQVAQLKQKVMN; partner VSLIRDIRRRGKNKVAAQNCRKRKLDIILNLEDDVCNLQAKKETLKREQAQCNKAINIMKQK
`K34T` has a binding fitness of -1.45 natural log.
`L31C` gave a binding fitness of -1.54 natural log.
`V56L` has a binding fitness of -1.56 natural log.
With `A57G` the binding fitness was -1.42 natural log.
`K39H` has a binding fitness of -1.51 natural log.
`V56D` has a binding fitness of -1.49 natural log.
The binding fitness of `E54G` is reported as -1.41 natural log.
For `V56F`, the binding fitness was -1.35 natural log.
`K34G` gave a binding fitness of -1.43 natural log.
The binding fitness of `I28K` is reported as -1.26 natural log.
`E54N` gave a binding fitness of -1.25 natural log.
The binding fitness of `M51E` is reported as -1.54 natural log.
`V56G` has a binding fitness of -1.56 natural log.
The binding fitness of `E44G` is reported as -1.4 natural log.
For `Q55G`, the binding fitness was -1.5 natural log.
The binding fitness of `L45E` is reported as -1.52 natural log.
The binding fitness of `V35Y` is reported as -1.46 natural log.
With `A49H` the binding fitness was -1.58 natural log.
The binding fitness of `E33V` is reported as -1.49 natural log.
With `T37A` the binding fitness was -1.36 natural log.
For `N42H`, the binding fitness was -1.5 natural log.
The binding fitness of `T37M` is reported as -1.45 natural log.
For `T48C`, the binding fitness was -1.26 natural log.
The binding fitness of `E54H` is reported as -1.52 natural log.
With `I28N` the binding fitness was -1.58 natural log.

Study 3
Target: ABI1, truncated, D143A, DHFR fusion (Arabidopsis thaliana)
Technique: DHFR PCA, deep sequencing
Matrix: yeast
Notes: methotrexate growth selection, single substitutions
Added: (+)-ABA 4.8 µM
Reference: wild-type fitted maximum
Direction: higher = stronger binding
Parent: PYL1, truncated, DHFR fusion (Arabidopsis thaliana); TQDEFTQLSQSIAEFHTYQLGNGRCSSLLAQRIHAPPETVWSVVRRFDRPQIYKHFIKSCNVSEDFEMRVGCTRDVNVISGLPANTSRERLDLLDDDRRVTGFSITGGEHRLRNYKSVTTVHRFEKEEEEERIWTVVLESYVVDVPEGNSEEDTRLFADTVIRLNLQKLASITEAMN
`L28E`: “relative binding score” -5.59%.
`E67Y` — result for “relative binding score”: 53.6%.
`S9M` — result for “relative binding score”: 55%.
`N85L` — result for “relative binding score”: 77.1%.
`V70K`: “relative binding score” 38.2%.
Under “relative binding score”, `L29Y` is recorded as -3.68%.
`Q10M`: “relative binding score” 59.6%.
`M68G`: “relative binding score” 39.9%.
`R46V`: “relative binding score” 11.2%.
Under “relative binding score”, `L91D` is recorded as 2.42%.
Under “relative binding score”, `S117P` is recorded as 16.8%.
Under “relative binding score”, `H122D` is recorded as 16.5%.
For `D65F`, “relative binding score” read 38.3%.
`L164S`: “relative binding score” 61.6%.
For `A13Q`, “relative binding score” read 75.5%.
Under “relative binding score”, `I57D` is recorded as -0.819%.
Under “relative binding score”, `K116D` is recorded as -3.35%.
For `E131R`, “relative binding score” read 76.1%.

Study 4
Target: CCND3, cyclin fold, Cln2 fusion (human)
Technique: yeast growth competition, sequencing
Matrix: yeast
Notes: weak parent motif
Reference: not given
Direction: higher = stronger binding
Parent: SAMHD1 docking peptide (human); ASKSRVQLFKDDP
`D11C` — result for “normalised enrichment score”: 0.0952.
`K3R`: “normalised enrichment score” 0.132.
`V6L` — result for “normalised enrichment score”: -0.0277.
`S4D` — result for “normalised enrichment score”: -0.0346.
`L8A`: “normalised enrichment score” -0.168.
Under “normalised enrichment score”, `K10Y` is recorded as -0.131.
Under “normalised enrichment score”, `D12V` is recorded as 0.566.
`D11A` — result for “normalised enrichment score”: -0.154.
Under “normalised enrichment score”, `Q7R` is recorded as 0.712.
Under “normalised enrichment score”, `R5V` is recorded as 0.211.
`D12S`: “normalised enrichment score” 0.252.
For `S2E`, “normalised enrichment score” read 0.152.
`S2A`: “normalised enrichment score” 0.191.
`K10D` — result for “normalised enrichment score”: -0.00363.
`Q7P`: “normalised enrichment score” -0.0532.
For `K10H`, “normalised enrichment score” read -0.0554.
Under “normalised enrichment score”, `F9T` is recorded as 0.0731.
Under “normalised enrichment score”, `K10A` is recorded as 0.0182.
`K3I`: “normalised enrichment score” -0.229.
For `R5L`, “normalised enrichment score” read -0.0688.
For `F9N`, “normalised enrichment score” read 0.361.
For `K10V`, “normalised enrichment score” read -0.0396.
Under “normalised enrichment score”, `L8E` is recorded as 0.232.
`S4V` — result for “normalised enrichment score”: -0.104.
Under “normalised enrichment score”, `S4T` is recorded as 0.0669.

Study 5
Target: Hepatocyte nuclear factor 3-beta, forkhead domain (FOXA2, Homo sapiens, UniProt Q9Y261, residues 142-269)
Technique: protein-binding microarray
Molecule type: double-stranded DNA, one strand shown
Matrix: in vitro
Tested at: not given
Notes: k-mer, scored over probes, only values ≥0.25
Direction: higher = stronger binding
Construct (chain): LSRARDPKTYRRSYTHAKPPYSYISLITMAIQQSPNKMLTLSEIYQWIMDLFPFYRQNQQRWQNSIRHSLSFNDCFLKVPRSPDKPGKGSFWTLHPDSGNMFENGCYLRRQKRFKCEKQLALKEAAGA
`AGTCAAAT` has an E-score of 0.276.
`AAATTCCA` has an E-score of 0.278.
The E-score of `TAATTATA` is reported as 0.325.
The E-score of `TGTATCAA` is reported as 0.29.
The E-score of `AAATATAA` is reported as 0.362.
The E-score of `ATAGCAAT` is reported as 0.358.
`ATAAATAA` gave an E-score of 0.282.
The E-score of `AAAAACGA` is reported as 0.294.
`GTAACAGA` gave an E-score of 0.278.
`CAGTATGA` has an E-score of 0.256.
With `ATGTGGTA` the E-score was 0.279.
`ACATATCA` has an E-score of 0.366.

Excerpt of the above (study 3):
`V70K`: “relative binding score” 38.2%.
Under “relative binding score”, `L29Y` is recorded as -3.68%.
`Q10M`: “relative binding score” 59.6%.
`M68G`: “relative binding score” 39.9%.
`R46V`: “relative binding score” 11.2%.
Under “relative binding score”, `L91D` is recorded as 2.42%.
Under “relative binding score”, `S117P` is recorded as 16.8%.
Under “relative binding score”, `H122D` is recorded as 16.5%.
For `D65F`, “relative binding score” read 38.3%.
`L164S`: “relative binding score” 61.6%.
For `A13Q`, “relative binding score” read 75.5%.
Under “relative binding score”, `I57D` is recorded as -0.819%.
